Measurements gathered from unrelated publications.
Compare with care: the assays were run in different laboratories. Several values in a cell are separate wells, animals, samples, runs or records. ± marks the error that the study gave.
B1: acetylcholinesterase; chain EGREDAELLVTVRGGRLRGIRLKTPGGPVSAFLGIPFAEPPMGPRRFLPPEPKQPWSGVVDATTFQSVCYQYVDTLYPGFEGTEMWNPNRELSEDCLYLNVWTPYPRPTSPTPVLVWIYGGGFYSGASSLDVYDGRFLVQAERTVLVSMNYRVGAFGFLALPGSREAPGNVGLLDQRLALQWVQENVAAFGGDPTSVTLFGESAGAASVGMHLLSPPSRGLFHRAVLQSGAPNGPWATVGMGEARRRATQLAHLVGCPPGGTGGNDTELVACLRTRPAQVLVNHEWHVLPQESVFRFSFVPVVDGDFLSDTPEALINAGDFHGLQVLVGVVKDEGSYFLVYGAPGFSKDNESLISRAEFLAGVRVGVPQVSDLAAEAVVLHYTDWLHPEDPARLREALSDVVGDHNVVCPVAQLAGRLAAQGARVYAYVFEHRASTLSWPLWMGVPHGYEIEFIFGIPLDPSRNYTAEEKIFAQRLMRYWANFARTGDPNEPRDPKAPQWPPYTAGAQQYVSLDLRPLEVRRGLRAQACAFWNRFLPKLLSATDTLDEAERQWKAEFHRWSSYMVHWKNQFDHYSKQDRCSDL

C=C(C)[C@H]1Cc2c(ccc3c2O[C@@H]2COc4cc(OC)c(OC)cc4[C@@H]2C3=O)O1 — result for “highest ineffective concentration”: 0.02 µM (complex I rat; reverse electron transport; isolated mitochondria; with: succinate 5 mM, glutamate 0.5 mM).
CO/N=C(\C(=O)N[C@@H]1C(=O)N2C(C(=O)O)=CCS[C@H]12)c1csc(N)n1 — result for “acylation rate constant k2/Ks”: 1000 ± 210 M⁻¹ s⁻¹ (Neisseria gonorrhoeae PBP2 H041; 1 h, pH 8.0, room temperature, with: Bocillin-FL competitor).
Under complex formation, `B1 (acetylcholinesterase)` is recorded as “binds” (amyloid oligomers; ELISA, LOC capture; A549 conditioned medium; baseline: mouse IgG).
Under “concentration of maximal inhibition”, O=[N+]([O-])c1ccc(O)c2ncccc12 is recorded as 5 µM (SIRT1, human; immunoblot, refers to: acetyl-p53; HUVEC; biphasic response).
CC[C@H](C)[C@H](NC(=O)[C@H](Cc1ccc(O)cc1)NC(=O)[C@@H](NC(=O)[C@@H]1CCCN1C(=O)[C@H](CCCNC(=N)N)NC(=O)[C@H](CC(N)=O)NC(=O)[C@H](CC(N)=O)NC(=O)[C@H](CCCN)N=C(N(C)C)N(C)C)C(C)C)C(=O)N1CCC[C@H]1C(=O)N[C@@H](CCCNC(=N)N)C(=O)N1CCC[C@H]1C(=O)N[C@@H](CCCNC(=N)N)C(=O)N1CCC[C@H]1C(=O)N1CCC[C@H]1C(=O)N[C@@H](Cc1c[nH]cn1)C(=O)N1CCC[C@H]1C(=O)N[C@@H](CCCNC(=N)N)C(=O)N[C@@H](CC(C)C)C(=O)O has a Kd of 0.328 ± 0.072 µM (Escherichia coli BW25113 70S ribosome; fluorescence polarization; 90 min).
`pepstatin A`: inhibition “no inhibition” (Candida albicans Bar1 protease; inhibitor; 100 µM, 90 min, pH 6.5, 37 °C).
For Brc1ccccc1-c1ccccc1Br, the inhibition was 43% (aequorin, Aequorea victoria; bioluminescence, inhibitor; 1.0×100 µM, with: coelenterazine; baseline: no inhibitor).
For CC(C)=CCCC(C)=CCCC(C)=CC=O, “peptide depletion span” read -17.4% (cysteine peptide Ac-RFAACAA-COOH; RapidFire MS DPRA; lowest to highest concentration).
For `KFNHWFG`, the recovery yield was 45% (adeno-associated virus 2; capsid binding, bind-and-elute chromatography; peptide; peptide ligand resin, MgCl2 elution).
Cl.Cn1sccc1=O: “maximal peptide depletion” -102% (cysteine peptide Ac-RFAACAA-COOH; DPRA RapidFire-MS/MS; 24 h, pH 7.5, with: 5.0 µM cysteine peptide).
O=C1c2cc(COc3ccccc3)nn2CCN1c1ccc(F)cn1 has an EC50 of greater than 10 µM (mGlu1, 2, 4, 6, 7, 8 receptors; selectivity screen).
O=[N+]([O-])c1ccc(Cl)c([N+](=O)[O-])c1 — result for “maximal peptide depletion”: -199% (cysteine peptide Ac-RFAACAA-COOH; DPRA RapidFire-MS/MS; 24 h, pH 7.5, with: 5.0 µM cysteine peptide).
CC[C@H](C)[C@H](NC(=O)[C@H](CCCNC(=N)N)NC(=O)[C@H](C)NC(=O)[C@H](Cc1c[nH]c2ccccc12)NC(=O)[C@H](CO)NC(=O)CNC(=O)[C@H](CC(C)C)NC(=O)[C@H](Cc1ccccc1)NC(=O)[C@H](CCCNC(=N)N)NC(=O)[C@H](CCCNC(=N)N)NC(=O)[C@H](Cc1ccccc1)NC(=O)CNC(C)=O)C(=O)N[C@@H](Cc1ccc(O)cc1)C(=O)N[C@@H](CCCNC(=N)N)C(=O)N[C@@H](C)C(=O)N[C@@H](Cc1ccccc1)C(=O)N[C@H](C(=O)NCC(N)=O)C(C)C: “association rate constant” 67200 M⁻¹ s⁻¹ (LPS; surface plasmon resonance; Escherichia coli, 026:B6; 25 °C).
Under “maximal peptide depletion”, C=CC(=O)OCCO is recorded as -132% (cysteine peptide Ac-RFAACAA-COOH; DPRA RapidFire-MS/MS; 24 h, pH 7.5, with: 5.0 µM cysteine peptide).
For O=C(O)c1cc2ccccc2c(Cc2c(O)c(C(=O)O)cc3ccccc23)c1O, the indel frequency was no more than 0.5% (PCSK9 (mouse); NGS, refers to: PCSK9 locus; mouse, hydrodynamic injection, liver; 80 or 160 mg/kg, SpyCas9 genome editing, after three treatment cycles).
Under “half-life of Aβ38 decline”, C[C@H](NC(=O)Cc1cc(F)cc(F)c1)C(=O)N[C@H]1N=C(c2ccccc2)c2ccccc2N(C)C1=O is recorded as roughly 1.9 h (γ-secretase; inhibitor, microdialysis; J20 hAPP transgenic mice, 24 months, hippocampal interstitial fluid; intraperitoneal, 3 mg/kg).
For CO/N=C(\C(=O)N[C@@H]1C(=O)N2C(C(=O)O)=C(COC(C)=O)CS[C@H]12)c1csc(N)n1, “acylation rate constant k2/Ks” read 880 ± 120 M⁻¹ s⁻¹ (Neisseria gonorrhoeae PBP2 H041; 1 h, pH 8.0, room temperature, with: Bocillin-FL competitor).
With O=C(O[C@@H]1Cc2c(O)cc(O)cc2O[C@@H]1c1cc(O)c(O)c(O)c1)c1cc(O)c(O)c(O)c1 the amyloid formation was 22 ± 7% (alpha-synuclein; thioflavin T fluorescence; 2 molar equivalents, pH 6.6, 37 °C, with: HFIP 2 vol-%; baseline: uninhibited control).
Oc1c(Cl)c(Cl)c(Cl)c(Cl)c1Cl has an inhibition of 34% (aequorin, Aequorea victoria; bioluminescence, inhibitor; 1.0×100 µM, with: coelenterazine; baseline: no inhibitor).
Clc1ccc(C(c2ccc(Cl)cc2)C(Cl)(Cl)Cl)cc1 has an efficacy of 19 ± 5% (estrogen receptor alpha (human); luciferase reporter gene, agonist; BG1Luc4E2; 10 µM, 24 h; baseline: maximum of estradiol).
Clc1ccc(-c2ccc(Cl)cc2Cl)cc1 has an inhibition of 41% (aequorin, Aequorea victoria; bioluminescence, inhibitor; 1.0×100 µM, with: coelenterazine; baseline: no inhibitor).
`Suc-Ala-Ala-Pro-Phe-chloromethyl ketone` has an inhibition of 36% (Schistosoma mansoni cercarial peptidases; peptide bond cleavage; Schistosoma mansoni, cercarial secretions; 500 nM, 30 min, pH 7.5).
For `IWWHIAKFG`, the recovery yield was 54.9% (adeno-associated virus 2; capsid binding, bind-and-elute chromatography; peptide; peptide ligand resin, MgCl2 elution).
N[C@@H](C(=O)N[C@@H]1C(=O)N2C(C(=O)O)=C(Cl)CS[C@H]12)c1ccccc1: “acylation rate constant k2/Ks” 29 ± 4 M⁻¹ s⁻¹ (Neisseria gonorrhoeae PBP2 H041; 1 h, pH 8.0, room temperature, with: Bocillin-FL competitor).
For CN[C@H](CC(C)C)C(=O)N[C@H]1C(=O)N[C@@H](CC(N)=O)C(=O)N[C@H]2C(=O)N[C@H]3C(=O)N[C@H](C(=O)N[C@H](C(=O)O)c4cc(O)cc(O)c4-c4cc3ccc4O)[C@H](O)c3ccc(c(Cl)c3)Oc3cc2cc(c3O[C@@H]2O[C@H](CO)[C@@H](O)[C@H](O)[C@H]2O[C@H]2C[C@](C)(N)[C@H](O)[C@H](C)O2)Oc2ccc(cc2Cl)[C@H]1O, “differential cantilever bending” read -9 ± 2 nm (D-Ala peptide; cantilever array; phosphate buffer; 10 nM).
For C=Cc1ccccn1, peptide depletion read “inactive” (cysteine peptide Ac-RFAACAA-COOH; DPRA RapidFire-MS/MS; 24 h, pH 7.5, with: 5.0 µM cysteine peptide).
Under “acylation rate constant k2/Ks”, Cc1cc(O)c(C(=O)N[C@@H](C(=O)N[C@@H]2C(=O)N3C(C(=O)O)=C(CSc4nnnn4C)CS[C@H]23)c2ccc(O)cc2)cn1 is recorded as 120 ± 14 M⁻¹ s⁻¹ (Neisseria gonorrhoeae PBP2 H041; 1 h, pH 8.0, room temperature, with: Bocillin-FL competitor).
For O=c1c2ccccc2[se]n1-c1ccccc1, the inhibition was 0% and -0.7% (trypanothione synthetase (Trypanosoma brucei); enzyme activity, inhibitor; 5 µM, 1 h preincubation, time-dependent).
CCN1CCN(C(=O)N[C@@H](C(=O)N[C@@H]2C(=O)N3C(C(=O)O)=C(CSc4nnnn4C)CS[C@H]23)c2ccc(O)cc2)C(=O)C1=O — result for “acylation rate constant k2/Ks”: 11800 ± 1300 M⁻¹ s⁻¹ (Neisseria gonorrhoeae PBP2 H041; 1 h, pH 8.0, room temperature, with: Bocillin-FL competitor).
The IC50 of C[C@H](NC(=O)C1CCNCC1)C(=O)Nc1ccc2c(c1)C(=O)c1ccc(NC(=O)[C@H](C)NC(=O)C3CCNCC3)cc1C2=O is reported as 39.7 ± 3.99 µM (HIV-1 nucleocapsid protein; TAR RNA melting, inhibitor).
Nc1nc(/C(=N/O)C(=O)N[C@@H]2C(=O)N3C(C(=O)O)=C(/C=C4\CCN([C@@H]5CCNC5)C4=O)CS[C@H]23)ns1 — result for “acylation rate constant k2/Ks”: 3230 ± 190 M⁻¹ s⁻¹ (Neisseria gonorrhoeae PBP2 H041; 1 h, pH 8.0, room temperature, with: Bocillin-FL competitor).
For CC(C)[C@@H]1NC(=O)c2coc(n2)-c2coc(n2)-c2coc(n2)C/C=C/c2coc(n2)-c2coc(n2)-c2coc1n2, “melting temperature shift” read 0.1 °C (salmon testes duplex DNA; UV melting; 15 µM, pH 7.5, with: 150 mM K+; baseline: DNA without compound).

A few entries again:
For CC(C)[C@@H]1NC(=O)c2coc(n2)-c2coc(n2)-c2coc(n2)C/C=C/c2coc(n2)-c2coc(n2)-c2coc1n2, “melting temperature shift” read 0.1 °C (salmon testes duplex DNA; UV melting; 15 µM, pH 7.5, with: 150 mM K+; baseline: DNA without compound).
Nc1nc(/C(=N/O)C(=O)N[C@@H]2C(=O)N3C(C(=O)O)=C(/C=C4\CCN([C@@H]5CCNC5)C4=O)CS[C@H]23)ns1 — result for “acylation rate constant k2/Ks”: 3230 ± 190 M⁻¹ s⁻¹ (Neisseria gonorrhoeae PBP2 H041; 1 h, pH 8.0, room temperature, with: Bocillin-FL competitor).
C=C(C)[C@H]1Cc2c(ccc3c2O[C@@H]2COc4cc(OC)c(OC)cc4[C@@H]2C3=O)O1 — result for “highest ineffective concentration”: 0.02 µM (complex I rat; reverse electron transport; isolated mitochondria; with: succinate 5 mM, glutamate 0.5 mM).
`Suc-Ala-Ala-Pro-Phe-chloromethyl ketone` has an inhibition of 36% (Schistosoma mansoni cercarial peptidases; peptide bond cleavage; Schistosoma mansoni, cercarial secretions; 500 nM, 30 min, pH 7.5).
Under “half-life of Aβ38 decline”, C[C@H](NC(=O)Cc1cc(F)cc(F)c1)C(=O)N[C@H]1N=C(c2ccccc2)c2ccccc2N(C)C1=O is recorded as roughly 1.9 h (γ-secretase; inhibitor, microdialysis; J20 hAPP transgenic mice, 24 months, hippocampal interstitial fluid; intraperitoneal, 3 mg/kg).
